Measured values of several laboratories.

Under plasma concentration, `COc1ccc(OC)c(/C(=C\c2ccc(O)c(O)c2)C(=O)NCCc2ccc(O)cc2)c1` is recorded as “decreased” (C57BL mice, pseudo-germ-free and MPTP/p, plasma; oral, 75 mg/kg of FLZ, 8 weeks; baseline: non-antibiotic control mice).
Under “plasma concentration ratio”, `COc1cc2c(cc1OC)CC(=O)N(C[C@H]1CCCN(CCOc3ccc(F)cc3)C1)CC2` is recorded as under 1 (C57BL/6 mice, plasma; intraperitoneal, 20 mg/kg, 15 min; baseline: compound over cilobradine).
`COc1ccc(OC)c(C(=Cc2ccc(O)c(OC)c2)C(=O)NCCc2ccc(O)cc2)c1` — result for plasma concentration: “decreased” (C57BL mice, pseudo-germ-free and MPTP/p, plasma; oral, 75 mg/kg, 8 weeks; baseline: non-antibiotic control mice).
For `CC(C)CCN(Cc1ccc(F)cc1)c1nc(C#N)nc(N2CCOCC2)n1`, the plasma concentration was 17.3 ng/mL (female CD-1 mice; intraperitoneal, 10 mg/kg, 2 h).
With `CSc1cc(C)[nH]c(=O)c1CN1CCc2c(Cl)c3c(c(C)c2C1=O)OC(C)(C1CCC(N(C)C)CC1)O3` (stereo not drawn) the plasma concentration was 12 ng/mL (female CB-17 SCID mice, plasma; oral, 25 mg/kg once daily, 10 h post dose).
With `Cn1cc2cc1C(=O)NCCCC(=O)Nc1cn(C)c(n1)C(=O)Nc1cn(C)c(n1)C(=O)Nc1cc(n(C)c1)C(=O)Nc1cc(n(C)c1)C(=O)NC[C@H](N)CC(=O)Nc1cc(n(C)c1)C(=O)Nc1cc(n(C)c1)C(=O)Nc1cc(n(C)c1)C(=O)N2` the plasma concentration was 3.9 µM (HPLC; C57BL/6 mice, pooled plasma; intraperitoneal, 120 nmol/animal, 1.5 h).
`CC1(C)C(/C=C/C2=C(Cl)C(=C/C=C3/N(CCCCCC(=O)O)c4ccccc4C3(C)C)/C[N+](C)(C)C2)=[N+](CCCCCC(=O)O)c2ccccc21` has a plasma half-life of 1.67 h (CD-1 mice; intravenous, 25 nmol).
`N#Cc1nc(N2CCOCC2)nc(N(Cc2ccc(F)cc2)CC2CCCNC2)n1` (stereo not drawn) gave a plasma concentration of 14.3 ng/mL (female CD-1 mice; intraperitoneal, 10 mg/kg, 7 h).
The plasma concentration of `Cc1cc(NC(=O)[C@H](O)c2cc(F)cc(F)c2)ccc1-c1cnc(N)c(C(=O)NC(C)C)c1` is reported as over 3220 ng/mL (female athymic nude mice, plasma; oral, 100 mg/kg single, up to 12 h).
For `CN(CCCNC(=O)c1cccc(C(=O)O)c1)CCCNC(=O)c1cc(NC(=O)c2cc(NC(=O)c3cc(NC(=O)c4cc(NC(=O)[C@H](N)CCNC(=O)c5cc(NC(=O)c6cc(NC(=O)c7nc(NC(=O)c8nccn8C)cn7C)cn6C)cn5C)cn4C)cn3C)cn2C)cn1C`, plasma concentration read “not detected” (HPLC; C57BL/6 mice, plasma; intraperitoneal, 120 nmol/animal, 24 h).
`CC(C)CCN(c1nc(C#N)nc(NC2COC2)n1)C(C)c1ccc(F)cc1` (stereo not drawn) has a plasma concentration of 1530 ng/mL (female CD-1 mice; intraperitoneal, 10 mg/kg, 0.5 h).
`N#Cc1cnc2cc(OCC3CCNCC3)c(F)cc2c1Nc1cc(F)c(OCc2cccc(Cl)n2)cc1Cl` — result for plasma glucose: “no effect” (C57BL/6J mice, diet-induced MASH, partial hepatectomy; dose not given, 2 h after hepatectomy; baseline: vehicle).

For quick reference, copied from above:
`N#Cc1cnc2cc(OCC3CCNCC3)c(F)cc2c1Nc1cc(F)c(OCc2cccc(Cl)n2)cc1Cl` — result for plasma glucose: “no effect” (C57BL/6J mice, diet-induced MASH, partial hepatectomy; dose not given, 2 h after hepatectomy; baseline: vehicle).
